{"data": "Experimental data gathered from unrelated publications", "note": "Numbered parts are unrelated; each lists some results of a single study. “And” joins repeats or separate records; there may be more than shown.", "chain of UniProt P00519 (whole entry, looked up)": "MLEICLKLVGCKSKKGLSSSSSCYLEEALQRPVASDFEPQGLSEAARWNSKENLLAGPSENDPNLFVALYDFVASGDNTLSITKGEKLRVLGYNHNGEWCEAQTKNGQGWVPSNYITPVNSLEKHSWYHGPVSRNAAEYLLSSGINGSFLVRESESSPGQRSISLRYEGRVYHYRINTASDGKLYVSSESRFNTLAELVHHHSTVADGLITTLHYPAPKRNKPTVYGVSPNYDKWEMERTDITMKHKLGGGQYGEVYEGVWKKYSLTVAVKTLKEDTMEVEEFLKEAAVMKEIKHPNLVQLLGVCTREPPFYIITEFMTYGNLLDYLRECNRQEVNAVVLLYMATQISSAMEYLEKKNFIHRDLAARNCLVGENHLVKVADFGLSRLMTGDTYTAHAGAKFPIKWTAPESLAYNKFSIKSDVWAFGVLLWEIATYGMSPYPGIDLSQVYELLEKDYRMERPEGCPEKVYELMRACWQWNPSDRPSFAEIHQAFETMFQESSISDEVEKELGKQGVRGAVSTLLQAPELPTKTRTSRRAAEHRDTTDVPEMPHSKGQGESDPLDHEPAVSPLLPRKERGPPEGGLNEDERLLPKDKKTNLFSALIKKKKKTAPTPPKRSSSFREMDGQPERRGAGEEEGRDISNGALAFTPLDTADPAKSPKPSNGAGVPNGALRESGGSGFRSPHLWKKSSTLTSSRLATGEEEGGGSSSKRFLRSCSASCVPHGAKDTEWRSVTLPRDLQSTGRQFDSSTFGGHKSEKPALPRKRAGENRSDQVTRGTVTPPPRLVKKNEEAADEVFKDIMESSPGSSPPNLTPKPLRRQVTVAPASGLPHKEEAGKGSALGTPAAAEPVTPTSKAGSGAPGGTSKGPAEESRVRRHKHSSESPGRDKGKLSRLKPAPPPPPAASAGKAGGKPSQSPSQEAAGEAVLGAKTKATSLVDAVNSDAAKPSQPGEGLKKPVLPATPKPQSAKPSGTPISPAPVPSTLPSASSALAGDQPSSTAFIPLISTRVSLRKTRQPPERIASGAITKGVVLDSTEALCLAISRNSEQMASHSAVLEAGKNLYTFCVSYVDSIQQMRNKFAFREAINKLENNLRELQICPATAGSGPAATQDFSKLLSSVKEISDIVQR", "chain of UniProt P11802 (whole entry, looked up)": "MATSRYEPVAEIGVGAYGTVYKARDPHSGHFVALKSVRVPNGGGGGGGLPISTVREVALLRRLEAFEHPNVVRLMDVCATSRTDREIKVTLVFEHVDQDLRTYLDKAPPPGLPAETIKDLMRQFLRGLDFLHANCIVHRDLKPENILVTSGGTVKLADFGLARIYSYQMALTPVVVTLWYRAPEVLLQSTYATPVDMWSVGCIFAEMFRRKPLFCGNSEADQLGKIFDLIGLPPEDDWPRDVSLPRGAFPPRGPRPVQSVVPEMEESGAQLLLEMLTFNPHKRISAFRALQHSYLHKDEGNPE", "chain of UniProt P06493 (whole entry, looked up)": "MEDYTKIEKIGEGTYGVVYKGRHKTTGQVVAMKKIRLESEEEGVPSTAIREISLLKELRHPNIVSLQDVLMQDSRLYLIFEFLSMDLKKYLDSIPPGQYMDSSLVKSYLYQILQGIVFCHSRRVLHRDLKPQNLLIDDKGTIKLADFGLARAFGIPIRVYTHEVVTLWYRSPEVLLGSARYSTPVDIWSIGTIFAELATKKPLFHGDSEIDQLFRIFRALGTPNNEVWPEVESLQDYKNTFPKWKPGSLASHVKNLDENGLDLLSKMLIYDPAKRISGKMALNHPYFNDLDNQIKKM", "chain of UniProt P21709 (whole entry, looked up)": "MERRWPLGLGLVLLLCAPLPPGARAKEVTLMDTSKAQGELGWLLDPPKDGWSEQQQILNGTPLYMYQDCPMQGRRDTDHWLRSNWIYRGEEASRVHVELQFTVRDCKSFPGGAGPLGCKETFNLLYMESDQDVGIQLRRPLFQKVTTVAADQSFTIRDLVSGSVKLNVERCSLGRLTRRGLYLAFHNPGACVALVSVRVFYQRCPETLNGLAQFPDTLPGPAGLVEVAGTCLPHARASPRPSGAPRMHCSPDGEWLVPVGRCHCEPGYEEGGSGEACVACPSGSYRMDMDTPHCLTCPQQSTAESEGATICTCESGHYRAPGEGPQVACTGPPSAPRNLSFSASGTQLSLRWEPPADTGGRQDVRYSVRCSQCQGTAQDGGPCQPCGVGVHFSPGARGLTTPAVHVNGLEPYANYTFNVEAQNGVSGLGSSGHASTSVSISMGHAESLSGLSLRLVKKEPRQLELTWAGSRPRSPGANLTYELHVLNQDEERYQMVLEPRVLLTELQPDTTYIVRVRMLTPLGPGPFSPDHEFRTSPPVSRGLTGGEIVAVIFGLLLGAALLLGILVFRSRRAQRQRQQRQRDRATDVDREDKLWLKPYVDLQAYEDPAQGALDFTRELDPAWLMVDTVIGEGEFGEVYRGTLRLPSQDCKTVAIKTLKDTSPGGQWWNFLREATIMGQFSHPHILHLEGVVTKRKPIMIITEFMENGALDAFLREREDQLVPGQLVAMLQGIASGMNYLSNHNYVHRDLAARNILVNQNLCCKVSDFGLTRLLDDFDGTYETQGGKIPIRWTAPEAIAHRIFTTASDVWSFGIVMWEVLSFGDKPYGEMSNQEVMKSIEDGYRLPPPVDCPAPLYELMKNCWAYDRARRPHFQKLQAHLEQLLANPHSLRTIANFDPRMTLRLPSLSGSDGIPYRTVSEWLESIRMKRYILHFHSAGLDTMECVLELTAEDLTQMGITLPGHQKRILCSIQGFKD", "chain of UniProt Q16644 (whole entry, looked up)": "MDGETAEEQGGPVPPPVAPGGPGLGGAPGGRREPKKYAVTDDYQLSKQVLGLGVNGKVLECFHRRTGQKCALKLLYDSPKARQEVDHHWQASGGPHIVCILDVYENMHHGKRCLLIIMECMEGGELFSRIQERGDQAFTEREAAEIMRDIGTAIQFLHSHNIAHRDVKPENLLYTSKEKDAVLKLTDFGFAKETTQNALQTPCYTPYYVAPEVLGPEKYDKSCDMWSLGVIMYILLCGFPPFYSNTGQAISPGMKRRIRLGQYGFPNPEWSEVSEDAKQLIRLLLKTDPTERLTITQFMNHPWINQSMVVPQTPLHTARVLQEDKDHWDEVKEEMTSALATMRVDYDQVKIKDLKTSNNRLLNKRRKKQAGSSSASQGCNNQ", "chain of UniProt P30530 (whole entry, looked up)": "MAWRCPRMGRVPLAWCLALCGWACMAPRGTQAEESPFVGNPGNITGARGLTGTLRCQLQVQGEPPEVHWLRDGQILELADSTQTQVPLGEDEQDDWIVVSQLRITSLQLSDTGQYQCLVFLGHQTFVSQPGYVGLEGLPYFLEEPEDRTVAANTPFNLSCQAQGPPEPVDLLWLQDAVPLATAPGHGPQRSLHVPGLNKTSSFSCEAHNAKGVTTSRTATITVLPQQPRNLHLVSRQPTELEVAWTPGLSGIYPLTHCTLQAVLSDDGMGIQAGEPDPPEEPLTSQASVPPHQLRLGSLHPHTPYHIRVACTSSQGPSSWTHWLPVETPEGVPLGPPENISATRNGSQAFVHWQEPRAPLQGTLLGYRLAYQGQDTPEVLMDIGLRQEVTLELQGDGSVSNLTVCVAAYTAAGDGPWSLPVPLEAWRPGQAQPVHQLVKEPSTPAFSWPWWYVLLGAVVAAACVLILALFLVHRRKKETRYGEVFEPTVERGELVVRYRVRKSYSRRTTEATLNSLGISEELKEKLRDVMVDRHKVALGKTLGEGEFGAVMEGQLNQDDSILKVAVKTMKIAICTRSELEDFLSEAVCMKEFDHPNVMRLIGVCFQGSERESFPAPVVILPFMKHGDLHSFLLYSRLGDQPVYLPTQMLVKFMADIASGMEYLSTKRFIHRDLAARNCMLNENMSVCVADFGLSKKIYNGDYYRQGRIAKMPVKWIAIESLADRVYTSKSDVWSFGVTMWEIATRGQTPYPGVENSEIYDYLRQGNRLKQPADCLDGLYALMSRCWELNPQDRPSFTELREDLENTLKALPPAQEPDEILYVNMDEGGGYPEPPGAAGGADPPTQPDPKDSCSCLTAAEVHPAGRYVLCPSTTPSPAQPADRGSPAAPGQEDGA", "chain of UniProt Q9H3Y6 (whole entry, looked up)": "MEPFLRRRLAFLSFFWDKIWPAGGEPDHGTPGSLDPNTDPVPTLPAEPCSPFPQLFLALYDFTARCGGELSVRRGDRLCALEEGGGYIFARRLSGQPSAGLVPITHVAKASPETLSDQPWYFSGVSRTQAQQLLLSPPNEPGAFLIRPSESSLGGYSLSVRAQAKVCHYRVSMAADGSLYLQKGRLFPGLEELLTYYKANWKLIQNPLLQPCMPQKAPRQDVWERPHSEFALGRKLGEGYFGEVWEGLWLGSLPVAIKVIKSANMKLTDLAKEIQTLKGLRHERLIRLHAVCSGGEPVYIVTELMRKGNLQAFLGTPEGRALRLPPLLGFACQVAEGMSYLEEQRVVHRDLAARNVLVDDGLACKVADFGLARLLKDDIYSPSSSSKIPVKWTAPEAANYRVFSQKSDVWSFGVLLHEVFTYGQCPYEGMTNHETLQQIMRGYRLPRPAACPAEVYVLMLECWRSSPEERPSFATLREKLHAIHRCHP"}
{"data": "Block 1", "SMILES": "Cn1nc2c3c(cccc31)C(=O)c1ccccc1-2", "observed": "enzyme activity", "mode": "inhibitor", "tested at": "0.5 µM", "reference": "control"}
{"target": "Serine/threonine-protein kinase 16 (STK16, Homo sapiens, UniProt O75716)", "remaining activity [%]": 83.3}
{"target": "Ephrin type-A receptor 4 (EPHA4, Homo sapiens, UniProt P54764)", "remaining activity [%]": 104}
{"target": "Calcium/calmodulin-dependent protein kinase type II subunit beta (CAMK2B, Homo sapiens, UniProt Q13554)", "remaining activity [%]": 95.3}
{"target": "Homeodomain-interacting protein kinase 2 (HIPK2, Homo sapiens, UniProt Q9H2X6)", "remaining activity [%]": 105}
{"target": "Mitogen-activated protein kinase kinase kinase kinase 4 (MAP4K4, Homo sapiens, UniProt O95819)", "remaining activity [%]": 85.1}
{"target": "Ephrin type-B receptor 4 (EPHB4, Homo sapiens, UniProt P54760)", "remaining activity [%]": 99.9}
{"target": "Serine/threonine-protein kinase WNK3 (WNK3, Homo sapiens, UniProt Q9BYP7)", "remaining activity [%]": 92}
{"target": "Cyclin-dependent kinase 6, with cyclin D3 (CDK6, Homo sapiens, UniProt Q00534)", "remaining activity [%]": 101}
{"target": "Dual specificity tyrosine-phosphorylation-regulated kinase 3 (DYRK3, Homo sapiens, UniProt O43781)", "remaining activity [%]": 129}
{"target": "Serine/threonine-protein kinase 17A (STK17A, Homo sapiens, UniProt Q9UEE5)", "remaining activity [%]": 83.7}
{"target": "Homeodomain-interacting protein kinase 4 (HIPK4, Homo sapiens, UniProt Q8NE63)", "remaining activity [%]": 102}
{"target": "Ephrin type-B receptor 1 (EPHB1, Homo sapiens, UniProt P54762)", "remaining activity [%]": 94.6}
{"target": "Ribosomal protein S6 kinase alpha-6 (RPS6KA6, Homo sapiens, UniProt Q9UK32)", "remaining activity [%]": 90.4}
{"target": "Cyclin-dependent kinase 1, with cyclin B (CDK1, Homo sapiens, UniProt P06493)", "remaining activity [%]": 108}
{"target": "3-phosphoinositide-dependent protein kinase 1 (PDPK1, Homo sapiens, UniProt O15530)", "remaining activity [%]": 94.5}
{"target": "Phosphorylase b kinase gamma catalytic chain, skeletal muscle/heart isoform (PHKG1, Homo sapiens, UniProt Q16816)", "remaining activity [%]": 86.4}
{"target": "Tyrosine-protein kinase Blk (BLK, Homo sapiens, UniProt P51451)", "remaining activity [%]": 106}
{"target": "MAP kinase-activated protein kinase 3 (MAPKAPK3, Homo sapiens, UniProt Q16644)", "remaining activity [%]": 104}
{"target": "Ribosomal protein S6 kinase alpha-5 (RPS6KA5, Homo sapiens, UniProt O75582)", "remaining activity [%]": 100}
{"target": "Cyclin-dependent kinase 4, with cyclin D3 (CDK4, Homo sapiens, UniProt P11802)", "remaining activity [%]": 92.4}
{"target": "Tyrosine-protein kinase receptor UFO (AXL, Homo sapiens, UniProt P30530)", "remaining activity [%]": 104}
{"target": "Tyrosine-protein kinase Srms (SRMS, Homo sapiens, UniProt Q9H3Y6)", "remaining activity [%]": 104}
{"target": "cAMP-dependent protein kinase catalytic subunit gamma (PRKACG, Homo sapiens, UniProt P22612)", "remaining activity [%]": 108}
{"target": "Tyrosine-protein kinase ABL1 (ABL1, Homo sapiens, UniProt P00519)", "remaining activity [%]": 99.1}
{"target": "Testis-specific serine/threonine-protein kinase 2 (TSSK2, Homo sapiens, UniProt Q96PF2)", "remaining activity [%]": 95.4}
{"data": "Block 2", "cell line": "mouse MPNST tumor cells", "technique": "high-content immunofluorescence imaging", "refers to": "nuclear SOX9", "tested at": "10 µM", "time": "12 h", "setting": "mean of 2 replicates", "reference": "DMSO control", "reading": "higher = more nuclear SOX9"}
{"Structure (SMILES)": "O=C(Nc1cccc2c(=O)cc(-c3nnn[nH]3)oc12)c1ccc(OCCCCc2ccccc2)cc1", "nuclear SOX9 intensity": "97.6 % of DMSO"}
{"Structure (SMILES)": "COc1cc(Br)c(S(=O)(=O)Nc2ccc(Cl)c(OC3CCN(C)C3)c2)cc1OC (stereo not shown)", "nuclear SOX9 intensity": "123 % of DMSO"}
{"Structure (SMILES)": "C[C@@H]1CN(c2c(F)c(N)c3c(=O)c(C(=O)O)cn(C4CC4)c3c2F)C[C@H](C)N1", "nuclear SOX9 intensity": "97.1 % of DMSO"}
{"Structure (SMILES)": "CCCCC(CC)CN1CN(CC(CC)CCCC)CC(C)(N)C1 (stereo not shown)", "nuclear SOX9 intensity": "118 % of DMSO"}
{"Structure (SMILES)": "O=C(O)Cc1ccc(-c2ccccc2)cc1", "nuclear SOX9 intensity": "96.5 % of DMSO"}
{"Structure (SMILES)": "COC(=O)Nc1nc2cc(C(=O)c3cccs3)ccc2[nH]1", "nuclear SOX9 intensity": "192 % of DMSO and 203 % of DMSO"}
{"Structure (SMILES)": "C/C=C(/C(=C/C)c1ccc(O)cc1)c1ccc(O)cc1", "nuclear SOX9 intensity": "105 % of DMSO"}
{"Structure (SMILES)": "CC(C)(C(=O)O)c1ccc(C(O)CCCN2CCC(C(O)(c3ccccc3)c3ccccc3)CC2)cc1 (stereo not shown)", "nuclear SOX9 intensity": "99.7 % of DMSO and 88.7 % of DMSO"}
{"Structure (SMILES)": "CC(=Cc1ccc(Cl)cc1)C(C)=NO", "nuclear SOX9 intensity": "99.9 % of DMSO"}
{"Structure (SMILES)": "CN1C(=O)C(Cc2c[nH]c3ccccc23)NC1=S (stereo not shown)", "nuclear SOX9 intensity": "93.5 % of DMSO"}
{"Structure (SMILES)": "CCn1cc(C(=O)O)c(=O)c2cc(F)c(N3CCNCC3)cc21", "nuclear SOX9 intensity": "105 % of DMSO"}
{"data": "Block 3", "SMILES": "Cc1cc(-n2nc(Cc3cc(F)cc(C(F)(F)F)c3)nc2C)ccc1C(N)=O", "technique": "competition with immobilised ligand", "tested at": "1 µM"}
{"target": "MAP kinase-activated protein kinase 2 (MAPKAPK2, Homo sapiens, UniProt P49137)", "observed": "cell-free assay", "remaining binding [%]": 100}
{"target": "Cyclin-dependent kinase 4, with cyclin D3 (CDK4, Homo sapiens, UniProt P11802)", "observed": "cell-free assay", "remaining binding [%]": 100}
{"target": "Aurora kinase B (AURKB, Homo sapiens, UniProt Q96GD4)", "observed": "cell-free assay", "remaining binding [%]": 87}
{"target": "cAMP-dependent protein kinase catalytic subunit PRKX (PRKX, Homo sapiens, UniProt P51817)", "observed": "cell-free assay", "remaining binding [%]": 100}
{"target": "Serine/threonine-protein kinase Sgk2 (SGK2, Homo sapiens, UniProt Q9HBY8)", "observed": "cell-free assay", "remaining binding [%]": 100}
{"target": "Casein kinase I isoform epsilon (CSNK1E, Homo sapiens, UniProt P49674)", "observed": "cell-free assay", "remaining binding [%]": 100}
{"target": "Cyclin-dependent kinase 15 (CDK15, Homo sapiens, UniProt Q96Q40)", "observed": "cell-free assay", "remaining binding [%]": 88}
{"target": "Tyrosine-protein kinase JAK3, JH1 (JAK3, Homo sapiens, UniProt P52333)", "observed": "cell-free assay", "remaining binding [%]": 100}
{"target": "Myosin-IIIa (MYO3A, Homo sapiens, UniProt Q8NEV4)", "observed": "binding", "remaining binding [%]": 100}
{"target": "ALK tyrosine kinase receptor (ALK, Homo sapiens, UniProt Q9UM73, C1156Y)", "observed": "cell-free assay", "remaining binding [%]": 100}
{"target": "Insulin receptor-related protein (INSRR, Homo sapiens, UniProt P14616)", "observed": "cell-free assay", "remaining binding [%]": 100}
{"target": "Tyrosine-protein kinase ABL1, phosphorylated (ABL1, Homo sapiens, UniProt P00519)", "observed": "cell-free assay", "remaining binding [%]": 100}
{"target": "Ephrin type-A receptor 1 (EPHA1, Homo sapiens, UniProt P21709)", "observed": "cell-free assay", "remaining binding [%]": 100}
{"data": "Block 4", "target": "Calcium/calmodulin-dependent protein kinase type II subunit alpha (CAMK2A, Homo sapiens, UniProt Q9UQM7)", "observed": "enzyme activity", "mode": "inhibitor", "tested at": "10 µM", "chain of UniProt Q9UQM7 (whole entry, looked up)": "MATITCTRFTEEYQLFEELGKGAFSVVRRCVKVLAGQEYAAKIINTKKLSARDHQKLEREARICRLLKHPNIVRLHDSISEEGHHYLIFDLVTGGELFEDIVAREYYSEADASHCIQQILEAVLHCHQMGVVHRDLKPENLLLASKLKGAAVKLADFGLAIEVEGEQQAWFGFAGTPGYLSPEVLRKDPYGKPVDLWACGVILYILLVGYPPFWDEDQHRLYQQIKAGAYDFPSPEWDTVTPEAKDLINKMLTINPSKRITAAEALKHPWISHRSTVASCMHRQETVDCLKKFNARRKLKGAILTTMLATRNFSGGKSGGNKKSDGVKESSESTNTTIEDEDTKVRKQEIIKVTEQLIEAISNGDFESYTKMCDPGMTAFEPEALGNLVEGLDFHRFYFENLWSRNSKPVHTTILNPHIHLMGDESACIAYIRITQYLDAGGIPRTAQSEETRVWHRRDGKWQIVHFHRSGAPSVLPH"}
{"SMILES": "CC(C)Cc1ccc([C@@H](C)C(=O)O)cc1", "inhibition": "-9%"}
{"SMILES": "O=NN(CCCl)C(=O)NCCCl", "inhibition": "-9%"}
{"SMILES": "O=c1c(O[C@@H]2O[C@H](CO)[C@H](O)[C@H](O)[C@H]2O)c(-c2ccc(O)c(O)c2)oc2cc(O)cc(O)c12", "inhibition": "-43%"}
{"SMILES": "CC1(C)S[C@@H]2[C@H](NC(=O)[C@H](NC(=O)N3CCNC3=O)c3ccccc3)C(=O)N2[C@H]1C(=O)O", "inhibition": "-3%"}
{"SMILES": "OCc1ccccc1O[C@@H]1O[C@H](CO)[C@@H](O)[C@H](O)[C@H]1O", "inhibition": "-20%"}
{"SMILES": "Fc1ccc([C@@H]2CCNC[C@H]2COc2ccc3c(c2)OCO3)cc1", "inhibition": "3%"}
{"SMILES": "CC(=O)N[C@@H](CCCN)C(=O)O", "inhibition": "-15%"}
{"SMILES": "COc1c2c(cc3oc(C)cc(=O)c13)OC(C(C)(C)O[C@@H]1O[C@H](CO)[C@@H](O)[C@H](O)[C@H]1O)C2 (stereo partly shown)", "inhibition": "36%"}
{"SMILES": "C[C@]12CC[C@@H]3c4ccc(O)cc4CC[C@H]3[C@@H]1C[C@@H](O)[C@@H]2O", "inhibition": "-12%"}
{"note": "Some of these lines once more (block 1):"}
{"target": "Ephrin type-A receptor 4 (EPHA4, Homo sapiens, UniProt P54764)", "remaining activity [%]": 104}
{"target": "Ribosomal protein S6 kinase alpha-5 (RPS6KA5, Homo sapiens, UniProt O75582)", "remaining activity [%]": 100}
{"target": "3-phosphoinositide-dependent protein kinase 1 (PDPK1, Homo sapiens, UniProt O15530)", "remaining activity [%]": 94.5}
{"target": "Tyrosine-protein kinase ABL1 (ABL1, Homo sapiens, UniProt P00519)", "remaining activity [%]": 99.1}
{"target": "Serine/threonine-protein kinase 16 (STK16, Homo sapiens, UniProt O75716)", "remaining activity [%]": 83.3}
{"target": "Homeodomain-interacting protein kinase 2 (HIPK2, Homo sapiens, UniProt Q9H2X6)", "remaining activity [%]": 105}
